Experimental data of several laboratories.
Each numbered part is a random draw from the data of one study; scales do not carry over between parts.
UniProt P53778, sequence (whole entry, looked up): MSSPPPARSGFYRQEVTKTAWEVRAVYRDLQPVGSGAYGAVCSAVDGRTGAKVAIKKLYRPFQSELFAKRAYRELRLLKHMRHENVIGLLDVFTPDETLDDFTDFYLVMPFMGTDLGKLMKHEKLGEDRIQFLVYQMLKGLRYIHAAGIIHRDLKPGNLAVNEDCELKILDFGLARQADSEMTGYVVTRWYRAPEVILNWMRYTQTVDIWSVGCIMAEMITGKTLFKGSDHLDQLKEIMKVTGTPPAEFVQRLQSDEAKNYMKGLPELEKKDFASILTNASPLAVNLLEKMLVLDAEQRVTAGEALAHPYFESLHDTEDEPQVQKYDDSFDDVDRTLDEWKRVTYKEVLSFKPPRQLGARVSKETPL
UniProt Q13237, sequence (whole entry, looked up): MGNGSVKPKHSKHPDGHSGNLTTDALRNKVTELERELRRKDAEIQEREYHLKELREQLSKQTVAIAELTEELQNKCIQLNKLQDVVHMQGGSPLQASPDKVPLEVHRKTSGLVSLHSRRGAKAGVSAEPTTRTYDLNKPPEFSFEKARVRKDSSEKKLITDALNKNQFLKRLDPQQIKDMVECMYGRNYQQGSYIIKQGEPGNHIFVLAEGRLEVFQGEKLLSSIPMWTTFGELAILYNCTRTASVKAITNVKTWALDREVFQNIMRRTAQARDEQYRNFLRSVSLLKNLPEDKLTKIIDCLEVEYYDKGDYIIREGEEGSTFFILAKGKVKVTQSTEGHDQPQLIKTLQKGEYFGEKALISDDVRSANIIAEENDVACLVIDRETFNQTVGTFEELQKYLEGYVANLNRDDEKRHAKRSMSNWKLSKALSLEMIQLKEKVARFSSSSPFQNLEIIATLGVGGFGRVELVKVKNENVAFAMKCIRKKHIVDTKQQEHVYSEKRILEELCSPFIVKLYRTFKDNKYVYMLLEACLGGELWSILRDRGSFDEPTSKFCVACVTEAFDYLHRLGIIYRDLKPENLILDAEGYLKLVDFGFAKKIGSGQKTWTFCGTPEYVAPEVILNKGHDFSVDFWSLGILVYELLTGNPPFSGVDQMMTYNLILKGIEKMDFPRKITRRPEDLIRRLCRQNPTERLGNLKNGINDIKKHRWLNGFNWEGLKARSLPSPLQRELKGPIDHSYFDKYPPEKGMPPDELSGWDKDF
UniProt O15264, sequence (whole entry, looked up): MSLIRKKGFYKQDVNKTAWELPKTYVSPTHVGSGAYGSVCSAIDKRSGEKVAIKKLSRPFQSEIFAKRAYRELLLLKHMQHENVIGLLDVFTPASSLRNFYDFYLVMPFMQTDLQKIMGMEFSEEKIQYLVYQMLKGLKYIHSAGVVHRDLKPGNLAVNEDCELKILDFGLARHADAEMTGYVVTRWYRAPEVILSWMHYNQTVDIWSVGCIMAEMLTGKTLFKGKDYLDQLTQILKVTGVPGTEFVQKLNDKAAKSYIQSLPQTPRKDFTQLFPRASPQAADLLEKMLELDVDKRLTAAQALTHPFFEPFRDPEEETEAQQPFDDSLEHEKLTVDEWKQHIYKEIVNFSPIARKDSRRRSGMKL

Series 1
Target: Max-binding protein MNT, bHLH-zipper, MAX partner unstated (MNT, Homo sapiens, UniProt Q99583, residues 220-300)
Technique: protein-binding microarray
Molecule type: double-stranded DNA, one strand shown
Sample: in vitro
Tested at: not given
Notes: k-mer, scored over probes, only values ≥0.25
Reading: higher = stronger binding
Residues (chain): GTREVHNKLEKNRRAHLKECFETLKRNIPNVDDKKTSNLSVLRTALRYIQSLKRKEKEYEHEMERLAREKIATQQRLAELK
| Oligonucleotide | E-score |
| --- | --- |
| CACGCGGA | 0.47 |
| CACGCGAC | 0.45 |
| CCACGCGA | 0.422 |
| ATGCGCGG | 0.252 |
| GCATATGC | 0.322 |
| CGTGCCTA | 0.289 |
| CGGGCACA | 0.28 |
| CACATTGC | 0.324 |

Series 2
Target: Interferon regulatory factor 1, DNA-binding domain (IRF1, Homo sapiens, UniProt P10914, residues 1-114)
Technique: protein-binding microarray
Molecule type: hairpin DNA
Sample: in vitro
Tested at: not given
Notes: whole hairpin DNA, median over replicate spots
Relative to: not given
Reading: higher = stronger binding
Shared flanks, not repeated: GAGGCCCG … CGGGCCTCACAC
Construct (chain): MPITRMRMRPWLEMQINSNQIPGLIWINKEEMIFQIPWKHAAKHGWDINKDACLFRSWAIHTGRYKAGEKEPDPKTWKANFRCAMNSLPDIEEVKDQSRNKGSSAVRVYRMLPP
| Oligonucleotide | median fluorescence |
| --- | --- |
| CAAGCGAAACGCCTCCTGGCGTTTCGCTTG (5mC at 9) | 550 a.u. |
| AAAGTGAACGGCCTCCTGGCCGTTCACTTT (5mC at 17) | 506 a.u. |
| AAAGTGTAACGCCTCCTGGCGTTACACTTT | 526 a.u. |
| CGAGCGAAACGCCTCCTGGCGTTTCGCTCG (5mC at 9 37) | 532 a.u. |
| AAAGTGAAACGCCTCCTGGCGTTTCACTTT (5mC at 7 39) | 1190 a.u. |
| AAAGCGAAACGCCTCCTGGCGTTTCGCTTT (5mC at 35) | 1860 a.u. |
| AAAGCGAAACGCCTCCTGGCGTTTCGCTTT (5mC at 13 33) | 902 a.u. |
| AAACTGAAACGCCTCCTGGCGTTTCAGTTT | 1120 a.u. |

Series 3
Target: Homeodomain-interacting protein kinase 3 (HIPK3, Homo sapiens, UniProt Q9H422)
UniProt Q9H422, sequence (whole entry, looked up): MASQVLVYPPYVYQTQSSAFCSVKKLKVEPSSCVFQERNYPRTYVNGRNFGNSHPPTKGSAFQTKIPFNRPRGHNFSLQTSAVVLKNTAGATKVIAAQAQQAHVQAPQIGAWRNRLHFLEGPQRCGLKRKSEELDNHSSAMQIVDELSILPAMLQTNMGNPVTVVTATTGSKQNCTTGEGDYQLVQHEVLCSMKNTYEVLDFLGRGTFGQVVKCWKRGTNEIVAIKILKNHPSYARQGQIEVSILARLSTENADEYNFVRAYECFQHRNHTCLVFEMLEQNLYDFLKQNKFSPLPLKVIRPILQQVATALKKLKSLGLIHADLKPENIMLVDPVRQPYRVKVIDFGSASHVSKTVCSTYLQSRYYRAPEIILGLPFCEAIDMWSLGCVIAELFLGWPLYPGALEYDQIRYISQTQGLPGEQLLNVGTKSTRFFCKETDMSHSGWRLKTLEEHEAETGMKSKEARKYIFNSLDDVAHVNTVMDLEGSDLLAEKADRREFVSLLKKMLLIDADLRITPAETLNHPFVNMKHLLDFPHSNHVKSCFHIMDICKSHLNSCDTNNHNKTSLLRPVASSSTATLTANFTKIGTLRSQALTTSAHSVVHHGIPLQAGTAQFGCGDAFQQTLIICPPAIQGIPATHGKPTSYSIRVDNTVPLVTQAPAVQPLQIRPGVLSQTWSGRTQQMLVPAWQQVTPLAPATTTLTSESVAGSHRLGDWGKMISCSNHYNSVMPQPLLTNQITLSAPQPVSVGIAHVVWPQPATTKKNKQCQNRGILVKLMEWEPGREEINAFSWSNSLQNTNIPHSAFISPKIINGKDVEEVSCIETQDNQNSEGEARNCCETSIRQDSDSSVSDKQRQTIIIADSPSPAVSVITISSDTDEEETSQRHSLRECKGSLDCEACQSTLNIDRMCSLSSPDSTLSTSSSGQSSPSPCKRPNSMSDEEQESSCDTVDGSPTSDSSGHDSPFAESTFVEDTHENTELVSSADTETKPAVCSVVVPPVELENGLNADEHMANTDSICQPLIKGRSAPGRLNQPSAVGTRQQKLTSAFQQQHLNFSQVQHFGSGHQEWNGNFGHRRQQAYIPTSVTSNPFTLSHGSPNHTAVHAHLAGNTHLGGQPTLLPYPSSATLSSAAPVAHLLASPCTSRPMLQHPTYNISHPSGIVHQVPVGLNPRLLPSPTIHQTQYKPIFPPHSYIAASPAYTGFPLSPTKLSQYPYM
Effect on: enzyme activity
Action: inhibitor
Tested at: 0.5 µM
Relative to: control
| SMILES | remaining activity |
| --- | --- |
| Cc1cn(-c2cc(NC(=O)c3ccc(C)c(Nc4nccc(-c5cccnc5)n4)c3)cc(C(F)(F)F)c2)cn1 | 99.8% |
| O=c1cc(-c2cccc3c2Sc2ccccc2S3)oc(N2CCOCC2)c1 | 105% |
| N#C/C(=C\c1ccc(O)c(O)c1)C(=O)NCc1ccccc1 | 96.6% |
| COc1cc2ncnc(Nc3ccc(O)c(Br)c3)c2cc1OC | 67.7% |
| CN(C)C[C@H]1CCn2c(c(C3=C(c4cn(C)c5ccccc45)C(=O)NC3=O)c3ccccc32)C1 | 111% |
| c1ccc(-c2cnc(Nc3ccc(OCCN4CCCC4)cc3)s2)cc1 | 64.8% |
| COc1cc2c(cc1OC)-c1[nH]nc(Nc3cccc(F)c3)c1C2 | 100% |
| CN([C@@H](Cc1ccc(OS(=O)(=O)c2cccc3cnccc23)cc1)C(=O)N1CCN(c2ccccc2)CC1)S(=O)(=O)c1cccc2cnccc12 | 110% |
| C[C@@H]1CCN(C(=O)CC#N)C[C@@H]1N(C)c1ncnc2[nH]ccc12 | 100% |
| O=C1c2ccccc2-c2n[nH]c3cccc1c23 | 84.8% |
| Ic1cccc(CSc2nnc(-c3ccncc3)o2)c1 | 99.1% |

Series 4
SMILES: Cc1c(C(=O)O)cc(-c2ccc(C3CCNCC3)cc2)c2ccc(-c3ccc(C(F)(F)F)cc3)cc12
Effect on: binding
Technique: competition with immobilised ligand
Tested at: 1 µM
| target | remaining binding |
| --- | --- |
| Mitogen-activated protein kinase 13 (MAPK13, Homo sapiens, UniProt O15264) | 96% |
| Mitogen-activated protein kinase 12 (MAPK12, Homo sapiens, UniProt P53778) | 85% |
| cGMP-dependent protein kinase 2 (PRKG2, Homo sapiens, UniProt Q13237) | 71% |
| Cyclin-dependent kinase 2 (CDK2, Homo sapiens, UniProt P24941) | 100% |

Some of these lines once more (series 1):
| Oligonucleotide | E-score |
| --- | --- |
| ATGCGCGG | 0.252 |
| GCATATGC | 0.322 |
